Measured values pooled from the literature.
Numbers after ± are the reported error. ≈ marks a conversion by molar mass, not a printed value.

Cc1cc(C(=O)NC(C)(C)COc2cccc3c2C(N)=NS(=O)(=O)N3)cc(C)n1  revertant ratio (Escherichia coli; Ames test, initial; WP2 uvrA; 500 µg/plate; relative to: solvent control): 1.1
C[C@H](Cn1cnc2c(N)ncnc21)OCP(=O)(O)O  therapeutic index (HIV-1; no human serum albumin; relative to: CC50 over IC50): > 49
Cc1cc(C#N)cc(C)c1Oc1nc(Nc2ccc(C#N)cc2)nc(N)c1Br  selectivity index (HIV-1; MT4, IIIB wild type; relative to: CC50 over EC50): > 1100
C[C@H]1C[C@@H](N2C(=N)N[C@](C)(c3cccc(NC(=O)c4cccc(C#N)c4)c3Cl)CC2=O)CCO1  mutagenicity (Salmonella typhimurium, Escherichia coli; TA98, TA100, TA1535, TA97a, WP2 uvrA pKM101; concentration not given, with and without S9): negative
COC(=O)[C@H]1[C@@H](O)[C@@]2(O)c3c(OC)cc(O[C@@H]4O[C@@H]([C@H](O)CO)CO[C@H]4OC)cc3O[C@@]2(c2ccc(OC)cc2)[C@@H]1c1ccccc1  viability (hepatitis E virus; A549 persistently infected with HEV; 2 nM, 72 h): ~30%
CN1CCCN(S(=O)(=O)c2ccc(-c3ccc4ncc(C#N)c(Nc5ccc(OCc6ccccc6)c(Cl)c5)c4c3)cc2)CC1  selectivity ratio (Trypanosoma cruzi; NIH 3T3, 2% FBS medium; 96 h; relative to: NIH 3T3 TC50 over T. cruzi EC50): 12
[Cl-].[Cl-].[Pt+2].[Ru+2].c1ccc(-c2nccnc2-c2ccccn2)nc1.c1cnc2c(c1)ccc1cccnc12.c1cnc2c(c1)ccc1cccnc12  survival rate (Danio rerio; embryos; 15 µM, 24 h): 90 ± 2.4%
COc1cccc(-c2n[nH]c(SCc3ccccn3)n2)c1OC  revertant colonies per plate (Escherichia coli; preincubation Ames test; WP2 uvrA; 2.0 mg per plate, together with: rat liver S9): 16
[Cl-].[Cl-].[Pt+2].[Ru+2].c1ccc(-c2nc3cc4ccccc4cc3nc2-c2ccccn2)nc1.c1cnc2c(c1)ccc1cccnc12.c1cnc2c(c1)ccc1cccnc12  survival rate (Danio rerio; embryos; 90 µM, 72 h): 60 ± 2.8%
O=C(NC(=O)c1ccccc1Cl)Nc1ccc(Cl)cc1  mortality (Plutella xylostella; leaf dipping; 50 mg/L, 96 h): 45.2 ± 4.5%
Cc1cn([C@H]2C[C@H](N=[N+]=[N-])[C@@H](CO)O2)c(=O)[nH]c1=O  selectivity index (HIV-1; MTT; MT4, RT A98G/V106I/V179D/Y181C/G333E mutant; relative to: CC50 over EC50): > 153
CN1CCCN(S(=O)(=O)c2ccc(-c3ccc4c(Nc5ccc(OCc6cccc(F)c6)c(Cl)c5)ccnc4c3)cc2)CC1  selectivity ratio (Trypanosoma cruzi; NIH 3T3, 2% FBS medium; 96 h; relative to: NIH 3T3 TC50 over T. cruzi EC50): 15
Nc1ccn([C@@H]2CS[C@H](CO)O2)c(=O)n1  selectivity index (HIV-1; MTT; MT4, RT L100I/V179D/Y181C mutant; relative to: CC50 over EC50): > 71
O=[N+]([O-])c1ccc(N2CCN(CCC(O)c3ccc(F)cc3)CC2)c(C(F)(F)F)c1 (centres unmarked)  survival (Salmonella typhimurium; SOS/umu test; TA1535/pSK1002; 0.002 mg/mL, 4 h, without S9, lower range): 111%
COc1ccnc(C(=O)N[C@H]2COC(=O)[C@H](Cc3ccccc3)[C@@H](OC(=O)C(C)C)[C@H](C)OC2=O)c1OCOC(=O)C(C)C  LC50 (Danio rerio; mortality; water exposure, flow-through, 96 h): 0.104 µg/mL (≈ 0.169 µM)
CN1CCCN(S(=O)(=O)c2ccc(-c3ccc4c(Nc5ccc(OCc6cccc(F)c6)c(Cl)c5)nncc4c3)cc2)CC1  selectivity ratio (Trypanosoma cruzi; NIH 3T3, 2% FBS medium; 96 h; relative to: NIH 3T3 TC50 over T. cruzi EC50): 34
CC1(F)CN(C(=O)Cn2c(=O)c(C(=O)NCc3ccc(Cl)cc3)cc3nc(N4CCNC4=O)cnc32)C1  selectivity index (herpes simplex virus 1; cytopathic effect; relative to: CC50 over EC50): > 77.9
CN1CCCN(S(=O)(=O)c2ccc(-c3ccc4nncc(Nc5ccc(OCc6cccc(F)c6)c(Cl)c5)c4c3)cc2)CC1  selectivity ratio (Trypanosoma cruzi; NIH 3T3, 2% FBS medium; 96 h; relative to: NIH 3T3 TC50 over T. cruzi EC50): 12
OC(CCN1CC=C(c2ccc(F)cc2)CC1)c1ccc(F)c2ccccc12 (centres unmarked)  survival (Salmonella typhimurium; SOS/umu test; TA1535/pSK1002, TGA medium; 0.000244 mg/mL, 4 h, without S9): 118%
N#C[C@@]1(n2ccc(N)nc2=O)O[C@H](CO)[C@@H](O)[C@H]1O  viability (Salmonella typhimurium; TA100; 2.5 µM, without S9; relative to: control): 99%
CC(=O)N1CCC(C(=O)N2CCN3C(=O)c4cc(-c5ccccc5)ccc4NC(=O)C3C2)CC1 (centres unmarked)  revertant fold increase (Escherichia coli; WP2 uvrA; 1581 µg/plate, with rat liver S9; relative to: vehicle): 0.9
CN1CCCN(S(=O)(=O)c2ccc(-c3ccc4ccnc(Nc5ccc(OCc6cccc(F)c6)c(Cl)c5)c4c3)cc2)CC1  selectivity ratio (Trypanosoma cruzi; NIH 3T3, 2% FBS medium; 96 h; relative to: NIH 3T3 TC50 over T. cruzi EC50): 5
Fc1ccc(C2=CCNCC2)cc1  survival (Salmonella typhimurium; SOS/umu test; TA1535/pSK1002; 1 mg/mL, 4 h, without S9, full range): 82.1%

Repeated from above:
[Cl-].[Cl-].[Pt+2].[Ru+2].c1ccc(-c2nccnc2-c2ccccn2)nc1.c1cnc2c(c1)ccc1cccnc12.c1cnc2c(c1)ccc1cccnc12  survival rate (Danio rerio; embryos; 15 µM, 24 h): 90 ± 2.4%
COc1ccnc(C(=O)N[C@H]2COC(=O)[C@H](Cc3ccccc3)[C@@H](OC(=O)C(C)C)[C@H](C)OC2=O)c1OCOC(=O)C(C)C  LC50 (Danio rerio; mortality; water exposure, flow-through, 96 h): 0.104 µg/mL (≈ 0.169 µM)
Cc1cn([C@H]2C[C@H](N=[N+]=[N-])[C@@H](CO)O2)c(=O)[nH]c1=O  selectivity index (HIV-1; MTT; MT4, RT A98G/V106I/V179D/Y181C/G333E mutant; relative to: CC50 over EC50): > 153
C[C@H](Cn1cnc2c(N)ncnc21)OCP(=O)(O)O  therapeutic index (HIV-1; no human serum albumin; relative to: CC50 over IC50): > 49
